Results gathered from unrelated publications.
Every numbered part comes from another study and shows a few of its results, in no order.
Chain of UniProt P41145 (whole entry, looked up): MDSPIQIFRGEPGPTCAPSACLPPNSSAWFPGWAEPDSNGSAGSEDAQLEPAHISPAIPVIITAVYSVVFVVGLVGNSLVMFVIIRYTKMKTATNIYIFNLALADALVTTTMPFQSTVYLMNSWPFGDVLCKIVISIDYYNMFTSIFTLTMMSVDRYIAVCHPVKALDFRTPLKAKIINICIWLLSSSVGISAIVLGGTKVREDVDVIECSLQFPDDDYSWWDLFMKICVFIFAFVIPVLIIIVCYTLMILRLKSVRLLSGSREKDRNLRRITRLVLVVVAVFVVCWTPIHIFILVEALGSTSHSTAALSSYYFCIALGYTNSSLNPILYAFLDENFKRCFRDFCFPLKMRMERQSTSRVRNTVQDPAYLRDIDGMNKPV
Chain of UniProt P35372 (whole entry, looked up): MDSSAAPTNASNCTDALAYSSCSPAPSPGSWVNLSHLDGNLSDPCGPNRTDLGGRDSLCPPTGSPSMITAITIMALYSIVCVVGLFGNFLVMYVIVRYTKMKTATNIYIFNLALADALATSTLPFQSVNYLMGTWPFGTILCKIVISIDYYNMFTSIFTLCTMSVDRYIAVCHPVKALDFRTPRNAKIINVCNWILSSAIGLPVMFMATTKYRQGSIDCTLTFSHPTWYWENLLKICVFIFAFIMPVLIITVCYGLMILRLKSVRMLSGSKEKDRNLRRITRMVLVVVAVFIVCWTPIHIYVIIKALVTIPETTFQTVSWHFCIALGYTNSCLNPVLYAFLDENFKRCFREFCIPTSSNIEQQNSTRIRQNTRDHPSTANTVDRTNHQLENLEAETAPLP
Chain of UniProt P21918 (whole entry, looked up): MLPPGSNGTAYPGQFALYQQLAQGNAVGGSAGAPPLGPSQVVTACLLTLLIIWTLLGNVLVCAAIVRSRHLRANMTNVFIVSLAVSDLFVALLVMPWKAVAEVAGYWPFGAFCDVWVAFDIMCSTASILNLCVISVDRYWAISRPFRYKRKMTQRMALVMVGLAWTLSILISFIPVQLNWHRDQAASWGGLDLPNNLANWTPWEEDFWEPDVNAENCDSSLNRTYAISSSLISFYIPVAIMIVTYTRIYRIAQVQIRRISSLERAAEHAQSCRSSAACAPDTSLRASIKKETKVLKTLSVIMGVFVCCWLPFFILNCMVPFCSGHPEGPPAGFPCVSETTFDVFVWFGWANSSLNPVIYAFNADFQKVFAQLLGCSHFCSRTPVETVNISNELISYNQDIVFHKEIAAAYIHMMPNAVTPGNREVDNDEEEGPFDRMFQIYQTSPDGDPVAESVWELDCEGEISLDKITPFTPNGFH
Chain of UniProt P41143 (whole entry, looked up): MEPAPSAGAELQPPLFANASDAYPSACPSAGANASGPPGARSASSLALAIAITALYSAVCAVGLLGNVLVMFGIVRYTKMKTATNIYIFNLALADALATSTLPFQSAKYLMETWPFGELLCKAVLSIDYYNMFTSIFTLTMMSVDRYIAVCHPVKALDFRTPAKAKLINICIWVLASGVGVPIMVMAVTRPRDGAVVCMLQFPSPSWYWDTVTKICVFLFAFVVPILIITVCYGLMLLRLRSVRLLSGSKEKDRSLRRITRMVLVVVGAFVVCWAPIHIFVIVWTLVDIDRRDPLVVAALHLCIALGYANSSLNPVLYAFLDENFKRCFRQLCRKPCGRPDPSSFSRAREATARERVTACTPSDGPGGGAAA
Chain of UniProt P11229 (whole entry, looked up): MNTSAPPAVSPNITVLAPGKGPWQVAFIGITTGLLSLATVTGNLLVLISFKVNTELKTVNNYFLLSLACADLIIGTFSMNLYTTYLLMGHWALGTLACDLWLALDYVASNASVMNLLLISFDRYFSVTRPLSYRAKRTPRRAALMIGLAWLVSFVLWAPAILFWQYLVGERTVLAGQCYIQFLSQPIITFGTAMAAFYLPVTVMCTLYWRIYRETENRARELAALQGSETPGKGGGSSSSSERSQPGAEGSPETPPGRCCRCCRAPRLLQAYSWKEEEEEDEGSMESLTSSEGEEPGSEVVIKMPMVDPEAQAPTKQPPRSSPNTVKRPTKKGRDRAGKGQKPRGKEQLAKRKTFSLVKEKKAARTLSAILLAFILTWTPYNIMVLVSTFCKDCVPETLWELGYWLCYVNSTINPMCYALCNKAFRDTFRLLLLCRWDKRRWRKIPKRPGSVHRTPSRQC
Chain of UniProt P20309 (whole entry, looked up): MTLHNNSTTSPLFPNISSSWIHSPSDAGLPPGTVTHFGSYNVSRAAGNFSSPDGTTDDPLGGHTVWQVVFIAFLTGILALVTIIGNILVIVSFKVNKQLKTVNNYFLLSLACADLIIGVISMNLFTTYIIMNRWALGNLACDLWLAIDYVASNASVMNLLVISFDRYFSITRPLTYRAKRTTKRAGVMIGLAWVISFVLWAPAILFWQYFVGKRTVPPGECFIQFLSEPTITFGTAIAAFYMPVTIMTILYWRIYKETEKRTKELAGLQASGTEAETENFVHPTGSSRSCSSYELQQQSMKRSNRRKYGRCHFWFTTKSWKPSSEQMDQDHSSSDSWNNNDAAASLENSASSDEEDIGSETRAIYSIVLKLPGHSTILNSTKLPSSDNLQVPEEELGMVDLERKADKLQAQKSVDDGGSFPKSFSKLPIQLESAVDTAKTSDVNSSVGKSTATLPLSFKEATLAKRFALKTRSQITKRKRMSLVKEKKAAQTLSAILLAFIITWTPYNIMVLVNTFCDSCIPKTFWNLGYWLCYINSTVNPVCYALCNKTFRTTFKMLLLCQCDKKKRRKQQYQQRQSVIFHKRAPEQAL

Series 1
Cell line: mouse MPNST tumor cells
Method: high-content nuclear imaging
Item: cell number
Tested at: 10 µM
Time: 12 h
Setting: mean of 2 replicates
Reference: plate mean
Direction: higher = more cells
For `Clc1ccc(C(OCCN2CCCCC2)c2ccccc2)cc1` (centres unmarked), the nuclei count was -1.77 z-score.
The nuclei count of `O=C(N[C@H]1CN2CCC1CC2)c1ccc(Cl)cc1` is reported as 2.01 z-score.
With `C#C[C@]1(O)CC[C@H]2[C@@H]3CCC4=CC(=O)CCC4=C3C=C[C@@]21CC` the nuclei count was 3.67 z-score.
The nuclei count of `Oc1ccc2c3c1O[C@H]1[C@@H](O)CC[C@@]4(O)[C@@H](C2)N(CC2CCC2)CC[C@]314` is reported as 2.42 z-score.
For `Cc1cc(Cl)ccc1OCCNC(=O)c1cccs1`, the nuclei count was 3.11 z-score.

Series 2
Structure (SMILES): C[C@@H](NC(=O)Nc1cc2[nH]ncc2c(CO)n1)c1ccccc1
Read-out: cell-free assay
Tested at: 10 µM
For CHRM3 (Homo sapiens, UniProt P20309): inhibition read -5.17%.
It gave 21.1% for inhibition (DRD5 (Homo sapiens, UniProt P21918)).
CHRM1 (Homo sapiens, UniProt P11229) — inhibition: -1.16%.
For OPRM1 (Homo sapiens, UniProt P35372): inhibition read 6.82%.
The inhibition was -18.7% (OPRD1 (Homo sapiens, UniProt P41143)).
For OPRK1 (Homo sapiens, UniProt P41145): inhibition read 10.3%.

Series 3
Target: Serine/threonine-protein kinase 33 (STK33, Homo sapiens, UniProt Q9BYT3)
Chain of UniProt Q9BYT3 (whole entry, looked up): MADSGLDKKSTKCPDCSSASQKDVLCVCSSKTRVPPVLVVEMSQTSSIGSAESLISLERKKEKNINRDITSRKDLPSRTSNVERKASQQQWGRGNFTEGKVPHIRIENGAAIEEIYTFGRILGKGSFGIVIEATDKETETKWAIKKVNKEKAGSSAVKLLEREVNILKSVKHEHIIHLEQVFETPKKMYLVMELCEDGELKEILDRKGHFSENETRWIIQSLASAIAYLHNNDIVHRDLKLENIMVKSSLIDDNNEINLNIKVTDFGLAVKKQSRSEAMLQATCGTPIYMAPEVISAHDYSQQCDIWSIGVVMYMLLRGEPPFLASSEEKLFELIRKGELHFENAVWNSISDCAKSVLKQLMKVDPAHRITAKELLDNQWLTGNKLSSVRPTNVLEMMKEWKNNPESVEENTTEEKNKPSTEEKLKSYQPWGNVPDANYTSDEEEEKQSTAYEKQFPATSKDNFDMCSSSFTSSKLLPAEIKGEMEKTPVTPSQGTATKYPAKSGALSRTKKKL
Read-out: enzyme activity
Mode: inhibitor
Method: radiometric
Tested at: 0.5 µM
The remaining activity of `O=C1NC(=O)C(c2cn(CCCO)c3ncccc23)=C1c1cnccn1` is reported as 82.8%.
`COc1ccc(C(=O)Nc2sc3c(c2C(N)=O)CCCC3)cc1OC` gave a remaining activity of 99.5%.
With `CN(C)c1ccc(C=C2C(=O)Nc3ccccc32)cc1` the remaining activity was 99.8%.
`N#CCCc1ccc2c(c1)-c1[nH]c3ccc([N+](=O)[O-])cc3c1CC(=O)N2` gave a remaining activity of 78.8%.
For `COc1cc2ncnc(Nc3ccc(F)c(Cl)c3)c2cc1OCCCN1CCOCC1`, the remaining activity was 90.4%.
`O=C1NC(=O)c2cc(Nc3ccc(F)cc3)c(Nc3ccc(F)cc3)cc21` has a remaining activity of 99.3%.
With `Cn1c2ccccc2c2c3c(c4c5ccccc5n(CCC#N)c4c21)CNC3=O` the remaining activity was 26.5%.
With `COC(=O)[C@]1(O)C[C@@H]2O[C@@]1(C)n1c3ccccc3c3c4c(c5c6ccccc6n2c5c31)C(=O)NC4` the remaining activity was 12.5%.

Mixed results
The viability of `C[C@]12C=CC(=O)C=C1CC[C@@H]1[C@@H]2CC[C@@]2(C)[C@H]1CC[C@]2(C)O` is reported as 34.6% (HaCaT; 100 µM, 60 h).

For quick reference, copied from above (series 2):
It gave 21.1% for inhibition (DRD5 (Homo sapiens, UniProt P21918)).
CHRM1 (Homo sapiens, UniProt P11229) — inhibition: -1.16%.
For CHRM3 (Homo sapiens, UniProt P20309): inhibition read -5.17%.
